Experimental data collected from several papers.
Every numbered part comes from another study and shows a few of its results, in no order. Positions count from the first letter of the parent shown.

Series 1
Target: RNA binding protein fox-1 homolog 2, RRM domain, GST-SBP tag (RBFOX2, Homo sapiens, UniProt O43251-10, residues 100-194)
Method: RNA Bind-n-Seq
Form: RNA
Sample: in vitro
Tested at: 365 nM
Setting: natural RNA segment, single round, ends assumed
Reference: no-protein control
Direction: higher = stronger binding
Constant ends, left off below: GGGAGUUCUACAGUCCGACGAUC … UGGAAUUCUCGGGUGCCAA
Residues (chain): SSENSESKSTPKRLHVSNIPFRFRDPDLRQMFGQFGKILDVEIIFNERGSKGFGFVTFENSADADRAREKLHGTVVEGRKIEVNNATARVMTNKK
| Sequence | RBNS enrichment (R) |
| --- | --- |
| UUGUUCAUCUGCUGCUGUUUACAUUCUAGGGGGGGGUCAAGGGAAGCACCCUCCCUCCCUUGUCCCCCGAAGCACAGAGGGGAGAGGGGCCGAGGAAGUAGGUACCUCUC | 0.313 |
| UAAGGGUAAUCUUCCUUCUCUGAUUACAGGAGCUGAAAUUUGACUUUUCUAACAGGCUCAGUCCUUACGAGCUUCUCAACACUGGUUCUUCUGUUAAGAGUGACUGUUCA | 0.243 |
| UAUCAUGUCAACCUGGCUUAUCAUUGUGAGCCCCUGAGGUCUUUCGGGUUCUCUGUAAUACUCAAGUCCUCUCUCAUUCUUACCUACCUCGACUCUUGAGAGGGAGGCUU | 0.357 |
| GCCUAAGCACUUCACUCACACACGCGAGUGGGCGAGUGCGUGUGCCUGUGCACACUUCACACACUGGGGCGGGACAUAGGCCGCAGGGACCCAGGGUCGCCUCAGGCAAA | 0.194 |
| GAUUUCUUUCUUUGCACCAAAGACAUCAGUCUCCAACAUGUUUCUGUUUUGUUGUUUGAUUCAGCAAAAAUCUCCCAGUGACAACAUCGCAAUAGUUUUUUACUUCUCUU | 0.527 |
| AAAUCACUUUUUAAUAUUUUUUGGUUGGUUAUUUCCCAAAUAAUCAACAUGUAAAUAAUCUUUUAAGAGCCAGUUCUGAUGCUUUACAUUAUUGCUACUUGAUUUUGUUA | 0.525 |
| CUGGAUCAUAGAGUGACCUUUAAUAAGUUAAAAAAACGAGGACUCCUUAAUUCUGCUAGAGUUAACCUUGAGUUCAGAGCAGUAUUAAAUGCGUGCACUUUCAGGUCAGU | 0.465 |
| UGAGCAGCGCGUCCUAAGCACCUCCCGCUCCGGUGACCCCAUCCUUGCACACCUGACUCUGUCACUCAAGCCUUUCUCCACCAGGCCCCUCAUCUGAAUACCAAGCACAG | 1.24 |
| CCAGGUGUUCUCUGAAAGCUUAGCCUUAAGAGAACACGCAGAGAGUUUCCCUAGAUAUACUCCUGCCUCCAGGUGCUGGGACACACCUUUGCAAAAUGCUGUGGGAAGCA | 0.681 |
| AUGAAUUCAUUGGAAUUUGUGUUGCAUGUAAGGCAAUCUUUCCUGUUGUAAAUCUUCCUUUUUUAAUGUACAUAUAUUUUGAAAAAUAUGAAUAAACAUGAAAUUUUAAA | 11.3 |
| UGGAUAAACAAAUGCUUGUUGAUAGCCUUUUUCUAUCAAGAAACCAAGGAGCUAAUUAUUAAUAACAAUCAUUGCACACUGAGUCUUAGCGUUUCUGAUGGAAACAGUUU | 0.709 |
| GACAUCGCUAAGUACUAAGGCCGCAGACUCCUGUCCGCAGCCUCGCAGCUCCGUGGGGCCCUCCGCCCCAGCCCCAGCCAGCCAGGCCCUGGUGGAAAGGCUGGGAGCCG | 0.123 |

Series 2
Target: Sal-like protein 4, full length isoform A (SALL4, Homo sapiens, UniProt Q9UJQ4, residues 1-1053)
Chain of UniProt Q9UJQ4 (whole entry, looked up): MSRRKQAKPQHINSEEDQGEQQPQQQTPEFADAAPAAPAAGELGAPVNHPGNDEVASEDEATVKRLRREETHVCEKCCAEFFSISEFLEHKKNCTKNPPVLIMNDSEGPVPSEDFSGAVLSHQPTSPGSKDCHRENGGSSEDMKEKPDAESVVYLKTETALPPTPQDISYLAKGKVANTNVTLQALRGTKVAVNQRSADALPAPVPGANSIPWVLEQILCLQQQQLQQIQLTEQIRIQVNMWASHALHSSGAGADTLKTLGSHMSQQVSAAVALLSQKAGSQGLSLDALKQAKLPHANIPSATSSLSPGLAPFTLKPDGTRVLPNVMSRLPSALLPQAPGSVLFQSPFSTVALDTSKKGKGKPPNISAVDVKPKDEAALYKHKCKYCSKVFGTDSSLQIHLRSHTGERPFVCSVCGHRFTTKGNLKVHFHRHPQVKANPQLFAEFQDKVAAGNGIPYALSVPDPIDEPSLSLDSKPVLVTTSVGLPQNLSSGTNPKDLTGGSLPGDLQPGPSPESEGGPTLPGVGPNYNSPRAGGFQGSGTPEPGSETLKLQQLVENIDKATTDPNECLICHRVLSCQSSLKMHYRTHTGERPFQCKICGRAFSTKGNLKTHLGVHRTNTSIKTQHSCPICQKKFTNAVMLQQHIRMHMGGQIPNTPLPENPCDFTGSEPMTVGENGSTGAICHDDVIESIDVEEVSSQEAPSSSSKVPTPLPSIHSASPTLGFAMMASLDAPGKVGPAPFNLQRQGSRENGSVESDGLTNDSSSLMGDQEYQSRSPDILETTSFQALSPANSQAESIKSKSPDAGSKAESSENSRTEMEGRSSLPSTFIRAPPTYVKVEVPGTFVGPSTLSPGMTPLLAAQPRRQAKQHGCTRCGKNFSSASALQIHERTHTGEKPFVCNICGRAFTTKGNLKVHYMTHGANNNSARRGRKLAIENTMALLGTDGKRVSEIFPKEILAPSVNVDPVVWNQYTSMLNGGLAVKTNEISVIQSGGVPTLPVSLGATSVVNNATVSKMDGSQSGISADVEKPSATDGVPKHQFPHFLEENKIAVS
Method: universal PBM
Form: double-stranded DNA, one strand shown
Sample: in vitro
Tested at: 600 nM
Setting: 8-mer, flanks averaged, mean of replicates
Direction: higher = stronger binding
| Sequence | E-score |
| --- | --- |
| AAATGCCG | -0.0486 |
| CACTGGCG | -0.116 |
| CCTCCCTC | -0.157 |
| ATTTCAAC | 0.243 |
| CTCTACAC | -0.103 |
| ATCGCTGA | 0.0585 |
| GCACCCAC | -0.211 |
| GCACTTGA | -0.0849 |
| ACATAAGC | 0.232 |
| GGGCAAGA | -0.0602 |
| CGATGCAG | -0.135 |
| TCCCACGA | -0.141 |
| ATATCCGC | 0.0559 |
| CAATCTCA | 0.0572 |
| ACGTACCT | -0.045 |
| ATACACGA | 0.0912 |
| CAAATTCG | 0.0628 |
| ATGACCAG | 0.0352 |
| AGCCTTGA | -0.0215 |
| GTGTCTGA | -0.00762 |
| GGGAAGAA | -0.12 |
| ATGCGCGA | -0.144 |
| CTCGGTCA | -0.061 |
| AGGCCGTA | -0.0918 |

Series 3
Organism: Saccharomyces cerevisiae
Read-out: growth after mating arrest
Method: competitive growth deep sequencing
Form: peptide
Setting: strain without Cln2 fusion
Direction: direction not given
| Molecule | enrichment score |
| --- | --- |
| PKNAKRNLSSEFAN | -0.423 |
| SMTDFYHSKRRLIFSK | 0.0606 |
| SSEVARHLLFQSHM | -0.0955 |
| PKRAKRKLYTSEISSP | -0.156 |

Series 4
Target: ABI1, truncated, D143A, DHFR fusion (Arabidopsis thaliana)
Method: DHFR PCA, deep sequencing
Sample: yeast
Setting: methotrexate growth selection, single substitutions
Added: (+)-ABA 0 µM
Reference: wild-type fitted maximum
Direction: higher = stronger binding
Starting sequence: PYL1, truncated, DHFR fusion (Arabidopsis thaliana); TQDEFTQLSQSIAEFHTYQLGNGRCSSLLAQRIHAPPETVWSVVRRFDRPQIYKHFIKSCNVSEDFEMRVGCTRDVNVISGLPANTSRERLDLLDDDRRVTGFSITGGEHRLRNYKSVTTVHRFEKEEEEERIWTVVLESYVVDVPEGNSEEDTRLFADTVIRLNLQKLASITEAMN; partner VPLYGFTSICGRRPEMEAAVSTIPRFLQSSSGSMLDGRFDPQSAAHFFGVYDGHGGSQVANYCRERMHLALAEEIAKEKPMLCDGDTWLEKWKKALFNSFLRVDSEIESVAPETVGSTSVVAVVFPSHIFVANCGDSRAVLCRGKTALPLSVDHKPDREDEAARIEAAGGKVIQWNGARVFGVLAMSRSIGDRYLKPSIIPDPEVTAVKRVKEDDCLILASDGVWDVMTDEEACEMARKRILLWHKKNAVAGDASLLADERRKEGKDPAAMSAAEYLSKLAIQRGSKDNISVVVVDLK
| Change | relative binding score [%] |
| --- | --- |
| L166M | 2.8 |
| R46F | -6.86 |
| R24Q | 63.1 |
| V43I | 44.4 |
| P37G | -1.27 |
| H55Y | 10.1 |
| Q167H | 8.72 |
| Q31C | -1.62 |
| T160L | 4.24 |
| V121H | -4.55 |
| R123I | -14.2 |
| V78Q | 8.21 |
| V121I | 9.37 |
| M176E | 6.88 |
| T154S | -9 |
| K168H | 27.5 |
| G23D | 7.13 |

Series 5
Target: RING finger protein unkempt homolog, zinc fingers 1-6, GST-SBP tag (UNK, Homo sapiens, UniProt Q9C0B0, residues 30-357)
Chain of UniProt Q9C0B0 (30-357, looked up): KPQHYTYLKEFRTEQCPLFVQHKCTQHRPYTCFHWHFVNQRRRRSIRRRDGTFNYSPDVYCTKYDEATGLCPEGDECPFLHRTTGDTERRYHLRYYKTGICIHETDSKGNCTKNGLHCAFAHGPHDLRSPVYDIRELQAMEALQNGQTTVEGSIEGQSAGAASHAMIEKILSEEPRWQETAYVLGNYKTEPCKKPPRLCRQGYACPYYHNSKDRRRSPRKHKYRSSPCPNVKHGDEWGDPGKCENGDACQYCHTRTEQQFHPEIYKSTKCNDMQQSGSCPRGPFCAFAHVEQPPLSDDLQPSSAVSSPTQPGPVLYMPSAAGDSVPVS
Method: RNA Bind-n-Seq
Form: RNA
Sample: in vitro
Tested at: not given
Setting: RNA with constant flanks, human and mouse sites, ends assumed
Reference: input RNA pool
Direction: higher = stronger binding
Constant ends, left off below: GGGAGUUCUACAGUCCGACGAUC … CAACAGAGGAUUGAGCAUCA
| Sequence | bound/input enrichment [ratio] |
| --- | --- |
| AUUCGAUUGCUAUAUGCAAAGCGACCAGGAAUUGGACUUUCACCAUCCCAUAGGAGAUACCUGGGCUAUAUGUGUGACCUACUGGCAGACAAGCCCUACCGCCCUCACUUCAAGCCUCUC | 0.184 |
| GUUUUUUUUCUCUAUGAAUAAAUGUCACUUUUUGAGGCAAAAAGAAGGAACCGUGAACAUUUUAGACACCCUUUUCUUUGGGGUAGGCUCUGCCCCAGGCGCCGUCUCCUUCCCCCCCCA | 1.28 |
| UUAGAACAGGAAAAUUCAGAGCUAGAAAGAGAAAAUAGGAAAUUUAAAAAAACUUUGGACAGCUUUAAAAACCUUACUUUUCAGUUAGAAUCUCUAGAAAAAGAGAAUUCCCAACUCGAU | 5.43 |
| AGUGAGACGGAAUGGAAUCUCCUGCAGAAAGAGGUACAUAAUGCUGGAAAUAAGCUUGGUAGACGUUGUGAUAUGUGUUCCAAUUAUGAAAAACAGUUACAAGGAAUUCAGAUUCAGGAA | 0.258 |
| UACGAAACAGUGGUUGGCCCUGGUGAUGUUCUUUACAUCCCAAUGUACUGGUGGCAUCACAUAGAGUCAUUACUAAAUGGGGGGAUUACCAUCACUGUGAACUUCUGGUAUAAGGGGGCU | 0.115 |
| UGUAAGUGCCUUUACCUAAAUGAUUUGCCUUUCAUCAAAAAGUAGACAUUCUAUUAUAAGUAUUGCUCUUUGUUUAGUGCAAAAUACGGAGUUCUUAAGUUAGACUGGGCAUGUAACACA | 0.598 |
| AUUUCUCUCUGCAGGUUGGGGAUUAAAGUUCCUUUCCCCAUGGGUUUGAAGCAGACUCAGACUGUCUCAGGAUCAAAGCAACCCUCAAUGGUUUUGAUUUAUGUCAUUGCUUACCACUCC | 0.184 |
| UCAAGAAGCAUCGUGUCUGGCGUUGUGGGGAUGAACUUUUUGUUUUGUUUCUUCCUUUUUUAGUUCUUCAAAGAUAGGGAGGGAAGGGGGAACAUGAGCCUUUGUUGCUAUCAAUCCAAG | 0.117 |
| UACACAGCAACACAGCACACACCUACAAGCAUCACCUUAACUGUUAGAAGAACCAAACCCAAGAAGCGGAAAAAGAGUCCAGAAAAGGGUCGUGCAGCACCAAAGACGAAGAAGAUCAAG | 0.502 |
| UUGGAAACCUAUUAUGAGCGUGUCUUGAAGAGAAAAACAUUUAACAAGGUUUUAGGACAUGUCAACAAUAUAUUAAUCUCUGCGGUGCUGCCAACAGCAUUCCGGGUGGCCAAAAAAAGG | 0.242 |
| UAUGUCGAGUUUCUCUAGGGCGCCCCAGCAAUGGGCCACUUUUGCUAGAAUAUGGUAUCUCUUAGAUGGGAAAAUGCAGCCACCUGGCAAACUUGCUGCUAUGGCAUCUAUAAGACUUCA | 0.708 |

Series 6
Target: ATF7, bZIP domain (human)
Method: DHFR protein complementation
Sample: yeast
Setting: single substitutions, most at no-binding floor
Reference: wild-type JUN-FOS pair
Direction: higher = stronger binding
Starting sequence: JUN, bZIP domain (human); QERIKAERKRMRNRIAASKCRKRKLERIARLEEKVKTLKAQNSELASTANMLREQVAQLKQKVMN; partner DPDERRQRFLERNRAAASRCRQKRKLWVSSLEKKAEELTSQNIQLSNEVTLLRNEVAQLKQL
| Change | binding fitness |
| --- | --- |
| A40Y | -1.16 natural log |
| A49S | -1.46 natural log |
| K36R | -0.771 natural log |
| E54T | -1.29 natural log |
| A29Y | -0.732 natural log |
| E54Y | -0.991 natural log |
| E32D | -1.32 natural log |
| I28A | -1.1 natural log |
| K39D | -1.23 natural log |
| R53G | -1.46 natural log |
| A46Y | -1.27 natural log |
| L38K | -1.4 natural log |
| A40V | -0.999 natural log |
| A29S | -1.06 natural log |
| A29Q | -0.982 natural log |
| K39V | -1.05 natural log |
| L45R | -1.53 natural log |
| T37E | -0.751 natural log |
| E54A | -0.894 natural log |
| L45A | -1.52 natural log |

A few entries again (series 6):
| Change | binding fitness |
| --- | --- |
| A29Y | -0.732 natural log |
| E54Y | -0.991 natural log |
| E32D | -1.32 natural log |
| I28A | -1.1 natural log |
| K39D | -1.23 natural log |
| R53G | -1.46 natural log |
| A46Y | -1.27 natural log |
| L38K | -1.4 natural log |
| A40V | -0.999 natural log |
| A29S | -1.06 natural log |
